Results gathered from unrelated publications.
Every numbered part comes from another study and shows a few of its results, in no order.
UniProt Q9P2K8, sequence (whole entry, unmodified, looked up): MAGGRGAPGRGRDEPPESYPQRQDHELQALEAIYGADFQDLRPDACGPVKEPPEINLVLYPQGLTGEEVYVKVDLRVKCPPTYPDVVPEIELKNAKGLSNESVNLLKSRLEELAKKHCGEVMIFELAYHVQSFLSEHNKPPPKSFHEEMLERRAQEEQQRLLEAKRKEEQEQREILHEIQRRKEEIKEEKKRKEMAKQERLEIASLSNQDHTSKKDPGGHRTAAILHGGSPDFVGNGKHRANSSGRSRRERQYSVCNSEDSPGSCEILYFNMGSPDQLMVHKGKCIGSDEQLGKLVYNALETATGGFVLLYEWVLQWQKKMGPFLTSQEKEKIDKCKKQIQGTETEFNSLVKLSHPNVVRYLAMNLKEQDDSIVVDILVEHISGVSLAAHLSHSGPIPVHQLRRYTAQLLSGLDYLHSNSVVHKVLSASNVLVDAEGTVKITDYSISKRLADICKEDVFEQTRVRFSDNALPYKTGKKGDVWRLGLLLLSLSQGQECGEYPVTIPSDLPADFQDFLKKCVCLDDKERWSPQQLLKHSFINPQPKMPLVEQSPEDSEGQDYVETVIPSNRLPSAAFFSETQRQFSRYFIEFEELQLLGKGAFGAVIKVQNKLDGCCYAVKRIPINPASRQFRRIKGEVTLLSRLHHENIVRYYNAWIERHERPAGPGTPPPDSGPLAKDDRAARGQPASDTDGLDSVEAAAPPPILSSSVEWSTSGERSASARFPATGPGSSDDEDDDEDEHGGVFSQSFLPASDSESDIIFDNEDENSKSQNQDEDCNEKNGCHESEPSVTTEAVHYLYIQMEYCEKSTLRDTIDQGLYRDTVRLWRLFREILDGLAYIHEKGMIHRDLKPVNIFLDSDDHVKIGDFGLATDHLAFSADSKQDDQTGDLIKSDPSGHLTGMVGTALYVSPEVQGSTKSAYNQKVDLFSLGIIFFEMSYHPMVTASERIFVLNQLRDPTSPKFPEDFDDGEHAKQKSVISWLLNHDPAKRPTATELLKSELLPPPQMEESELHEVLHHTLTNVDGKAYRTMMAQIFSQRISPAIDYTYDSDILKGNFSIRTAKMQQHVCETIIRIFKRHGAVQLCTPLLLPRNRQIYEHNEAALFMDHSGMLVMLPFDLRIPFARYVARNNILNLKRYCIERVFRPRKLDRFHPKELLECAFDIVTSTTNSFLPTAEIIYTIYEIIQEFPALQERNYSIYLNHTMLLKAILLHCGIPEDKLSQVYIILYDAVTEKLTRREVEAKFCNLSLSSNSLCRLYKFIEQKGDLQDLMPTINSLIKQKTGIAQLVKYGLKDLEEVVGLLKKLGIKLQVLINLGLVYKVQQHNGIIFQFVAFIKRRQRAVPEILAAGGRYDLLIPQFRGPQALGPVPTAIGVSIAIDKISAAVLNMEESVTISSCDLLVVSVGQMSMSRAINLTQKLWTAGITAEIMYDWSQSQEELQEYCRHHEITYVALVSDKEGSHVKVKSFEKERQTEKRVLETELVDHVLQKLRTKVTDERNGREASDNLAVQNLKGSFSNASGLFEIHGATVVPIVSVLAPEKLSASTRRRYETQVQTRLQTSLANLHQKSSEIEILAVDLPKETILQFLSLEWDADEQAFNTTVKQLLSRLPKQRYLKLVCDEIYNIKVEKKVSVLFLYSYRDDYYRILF
UniProt O75385, sequence (whole entry, looked up): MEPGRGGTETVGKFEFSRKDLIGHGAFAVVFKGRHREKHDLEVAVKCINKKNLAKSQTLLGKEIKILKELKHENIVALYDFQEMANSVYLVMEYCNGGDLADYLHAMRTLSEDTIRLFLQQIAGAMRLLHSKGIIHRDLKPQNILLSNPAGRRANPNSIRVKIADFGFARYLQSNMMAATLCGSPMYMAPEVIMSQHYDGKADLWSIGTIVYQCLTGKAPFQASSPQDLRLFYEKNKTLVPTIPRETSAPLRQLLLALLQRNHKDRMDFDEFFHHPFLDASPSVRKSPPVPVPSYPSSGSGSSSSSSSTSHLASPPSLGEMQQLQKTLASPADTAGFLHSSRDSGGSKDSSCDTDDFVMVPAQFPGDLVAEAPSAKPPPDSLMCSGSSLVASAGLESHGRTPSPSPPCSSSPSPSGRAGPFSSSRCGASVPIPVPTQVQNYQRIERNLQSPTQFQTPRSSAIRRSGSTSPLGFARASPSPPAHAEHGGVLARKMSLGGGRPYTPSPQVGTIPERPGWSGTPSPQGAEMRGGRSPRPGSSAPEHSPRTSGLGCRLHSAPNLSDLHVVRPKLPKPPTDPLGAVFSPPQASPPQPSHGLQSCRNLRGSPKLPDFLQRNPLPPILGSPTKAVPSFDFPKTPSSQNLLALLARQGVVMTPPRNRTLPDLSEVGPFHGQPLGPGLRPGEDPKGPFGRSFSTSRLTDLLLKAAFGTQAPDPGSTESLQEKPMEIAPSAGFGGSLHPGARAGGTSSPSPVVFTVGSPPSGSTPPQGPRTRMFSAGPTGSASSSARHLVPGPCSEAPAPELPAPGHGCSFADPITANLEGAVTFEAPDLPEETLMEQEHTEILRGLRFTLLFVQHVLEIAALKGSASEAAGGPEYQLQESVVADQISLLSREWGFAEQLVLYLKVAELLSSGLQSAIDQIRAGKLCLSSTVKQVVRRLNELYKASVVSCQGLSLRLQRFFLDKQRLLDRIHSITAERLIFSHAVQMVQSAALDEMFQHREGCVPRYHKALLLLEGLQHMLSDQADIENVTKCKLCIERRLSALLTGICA
UniProt Q13557, sequence (whole entry, looked up): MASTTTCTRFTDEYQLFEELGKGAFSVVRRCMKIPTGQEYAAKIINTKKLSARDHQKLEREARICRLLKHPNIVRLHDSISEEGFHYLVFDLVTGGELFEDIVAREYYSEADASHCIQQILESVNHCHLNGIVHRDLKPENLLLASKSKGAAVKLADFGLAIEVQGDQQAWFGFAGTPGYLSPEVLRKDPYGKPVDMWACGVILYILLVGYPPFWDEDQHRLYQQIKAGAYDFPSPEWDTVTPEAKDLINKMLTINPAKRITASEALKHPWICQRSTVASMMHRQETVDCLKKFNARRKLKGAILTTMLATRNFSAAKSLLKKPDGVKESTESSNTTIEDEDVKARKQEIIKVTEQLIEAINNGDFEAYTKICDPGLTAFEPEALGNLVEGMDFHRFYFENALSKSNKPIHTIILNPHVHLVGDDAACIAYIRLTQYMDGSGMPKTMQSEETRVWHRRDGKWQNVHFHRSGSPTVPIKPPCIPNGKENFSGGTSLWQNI
UniProt P37023, sequence (whole entry, looked up): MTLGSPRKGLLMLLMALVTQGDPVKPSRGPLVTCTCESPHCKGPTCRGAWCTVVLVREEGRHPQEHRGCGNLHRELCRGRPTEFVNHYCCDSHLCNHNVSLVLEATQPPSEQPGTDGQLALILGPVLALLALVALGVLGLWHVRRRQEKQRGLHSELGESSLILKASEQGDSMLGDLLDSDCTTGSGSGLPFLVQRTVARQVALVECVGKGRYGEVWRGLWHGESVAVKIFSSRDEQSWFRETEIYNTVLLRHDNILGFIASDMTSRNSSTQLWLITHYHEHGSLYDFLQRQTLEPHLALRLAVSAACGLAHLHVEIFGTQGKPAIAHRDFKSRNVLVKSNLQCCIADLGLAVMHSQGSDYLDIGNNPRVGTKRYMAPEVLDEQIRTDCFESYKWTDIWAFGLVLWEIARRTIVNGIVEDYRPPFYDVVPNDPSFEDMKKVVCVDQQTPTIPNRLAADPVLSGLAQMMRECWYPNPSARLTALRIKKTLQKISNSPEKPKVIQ
UniProt P51955, sequence (whole entry, looked up): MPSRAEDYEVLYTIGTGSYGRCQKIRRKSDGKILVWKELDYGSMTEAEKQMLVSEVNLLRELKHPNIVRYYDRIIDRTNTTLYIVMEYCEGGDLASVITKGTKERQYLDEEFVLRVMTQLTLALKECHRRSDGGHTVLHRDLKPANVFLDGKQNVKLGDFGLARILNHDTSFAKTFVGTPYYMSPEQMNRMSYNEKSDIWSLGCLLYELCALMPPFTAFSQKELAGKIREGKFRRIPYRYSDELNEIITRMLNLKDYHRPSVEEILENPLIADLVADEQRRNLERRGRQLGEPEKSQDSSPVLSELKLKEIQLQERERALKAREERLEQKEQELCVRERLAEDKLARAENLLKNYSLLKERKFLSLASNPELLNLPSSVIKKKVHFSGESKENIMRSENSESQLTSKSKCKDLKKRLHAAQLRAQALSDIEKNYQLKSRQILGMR

Sample 1
Compound: CC(=O)C1=C(C)N(c2cccc(C(F)(F)F)c2)C(=O)N[C@@H]1c1ccc(C#N)nc1
Technique: competition with immobilised ligand
Tested at: 1 µM
| target | observed | remaining binding |
| --- | --- | --- |
| ULK1 (Homo sapiens, UniProt O75385) | cell-free assay | 100% |
| DYRK2 (Homo sapiens, UniProt Q92630) | cell-free assay | 100% |
| Ribosomal protein S6 kinase alpha-6, N-terminal kinase domain (RPS6KA6, Homo sapiens, UniProt Q9UK32) | cell-free assay | 100% |
| RIPK4 (Homo sapiens, UniProt P57078) | cell-free assay | 100% |
| ACVRL1 (Homo sapiens, UniProt P37023) | binding | 71.7% |
| eIF-2-alpha kinase GCN2, C-terminal kinase domain (EIF2AK4, Homo sapiens, UniProt Q9P2K8, S808G) | cell-free assay | 56.9% |
| CAMK2D (Homo sapiens, UniProt Q13557) | cell-free assay | 100% |
| Tyrosine-protein kinase ABL1, phosphorylated (ABL1, Homo sapiens, UniProt P00519) | cell-free assay | 83.3% |
| PIK3CA (Homo sapiens, UniProt P42336, I800L) | cell-free assay | 75.4% |
| PIP4K2C (Homo sapiens, UniProt Q8TBX8) | cell-free assay | 80.7% |
| STK38L (Homo sapiens, UniProt Q9Y2H1) | cell-free assay | 93.6% |
| NEK2 (Homo sapiens, UniProt P51955) | cell-free assay | 100% |
| IRAK3 (Homo sapiens, UniProt Q9Y616) | cell-free assay | 100% |
| FLT3 (Homo sapiens, UniProt P36888, F691L/ITD) | cell-free assay | 87.4% |

Sample 2
Target: Tyrosine-protein kinase TXK (TXK, Homo sapiens, UniProt P42681)
UniProt P42681, sequence (whole entry, looked up): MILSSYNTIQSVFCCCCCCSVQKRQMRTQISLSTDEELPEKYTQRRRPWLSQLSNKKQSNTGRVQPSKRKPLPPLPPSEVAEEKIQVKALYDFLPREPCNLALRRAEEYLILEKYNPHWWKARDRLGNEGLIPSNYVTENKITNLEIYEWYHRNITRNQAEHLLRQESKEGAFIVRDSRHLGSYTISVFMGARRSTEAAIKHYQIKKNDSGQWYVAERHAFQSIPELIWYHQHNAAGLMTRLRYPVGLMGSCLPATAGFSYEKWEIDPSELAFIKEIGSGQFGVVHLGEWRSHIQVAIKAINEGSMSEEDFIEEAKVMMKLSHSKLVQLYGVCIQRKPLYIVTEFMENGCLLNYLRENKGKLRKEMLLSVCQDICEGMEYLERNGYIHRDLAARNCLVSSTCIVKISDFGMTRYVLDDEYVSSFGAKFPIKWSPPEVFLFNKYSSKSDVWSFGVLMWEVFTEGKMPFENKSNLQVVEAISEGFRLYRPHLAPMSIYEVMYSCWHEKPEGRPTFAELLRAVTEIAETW
Observed: enzyme activity
Action: inhibitor
Tested at: 0.5 µM
Relative to: control
| SMILES | remaining activity |
| --- | --- |
| COc1cc2ncnc(Nc3ccc(Oc4ccccc4)cc3)c2cc1OC | 78% |
| CNC(=O)c1cc(Oc2ccc(NC(=O)Nc3ccc(Cl)c(C(F)(F)F)c3)cc2)ccn1 | 106% |
| O=c1c2ccccc2[nH]c(=S)n1CCN1CCC(=C(c2ccc(F)cc2)c2ccc(F)cc2)CC1 | 100% |
| Cc1ccc(NC(=O)c2ccc(CN3CCN(C)CC3)cc2)cc1Nc1nc(-c2cccnc2)cs1 | 101% |

Sample 3
Target: Prothrombin, mature alpha-thrombin (F2, Homo sapiens, UniProt P00734)
Technique: aptamer microarray, sandwich
Form: DNA with 2'F-ANA
Sample: in vitro
Tested at: 200 nM
Notes: whole 15-mer aptamer, many near background
Added: Cy3 exosite-II aptamer, 400 nM
Reading: higher = stronger binding
Sequence: GGTTGGTGTGGTTGG
| Modification | mean fluorescence intensity |
| --- | --- |
| 2'F-ANA at 2 4 6 9 11 15 | 180 a.u. |
| 2'F-ANA at 1 3 4 5 6 8 9 10 11 | 48.5 a.u. |
| 2'F-ANA at 1 4 5 9 12 13 | 65.4 a.u. |
| 2'F-ANA at 1 2 3 5 9 10 11 12 13 14 | 50.7 a.u. |
| 2'F-ANA at 3 4 5 7 9 10 12 13 | 54.3 a.u. |
| 2'F-ANA at 5 8 9 10 11 12 | 50.1 a.u. |
| 2'F-ANA at 2 3 4 5 6 7 10 12 14 | 46.7 a.u. |
| 2'F-ANA at 3 4 6 9 14 | 264 a.u. |

Sample 4
Target: Centromere-binding protein 1, full length, His-tagged (CBF1, Saccharomyces cerevisiae, UniProt P17106, residues 1-351)
UniProt P17106, sequence (whole entry, looked up): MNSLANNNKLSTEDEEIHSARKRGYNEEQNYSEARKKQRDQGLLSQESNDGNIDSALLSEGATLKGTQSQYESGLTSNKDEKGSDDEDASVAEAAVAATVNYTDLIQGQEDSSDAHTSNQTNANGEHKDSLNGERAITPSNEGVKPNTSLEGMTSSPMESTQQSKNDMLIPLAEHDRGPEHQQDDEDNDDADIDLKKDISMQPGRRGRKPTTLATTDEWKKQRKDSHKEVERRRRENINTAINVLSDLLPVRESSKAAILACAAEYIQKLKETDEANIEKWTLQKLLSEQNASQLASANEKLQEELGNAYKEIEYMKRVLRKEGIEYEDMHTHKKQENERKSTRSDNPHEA
Technique: competition protein-binding microarray
Form: double-stranded DNA, one strand shown
Sample: in vitro
Tested at: 2 µM
Notes: whole 60-bp probe, lowest competitor level
Added: Pho4 competitor, 0.05 µM
Reading: higher = stronger binding
Constant ends, left off below: … GTCTTGATTCGCTTGACGCTGCTG
| Sequence | fluorescence intensity [a.u.] |
| --- | --- |
| GAACCTGTGGAATTAAGCATGACAATTGGAAAGTCC | 103 |
| CTAACGAAGGTTTGATTCGTGGGTGACAAGCCAAGT | 68 |
| GGACGCGTAGAGGCGCACGTGTCCCGGCCCGGAGCC | 1020 |
| GACTTTTTCCTGAGGCACATGTGTGGCCATCGTCAA | 101 |
| CGTCCTAGCGATTGAAGCGTGGGTGCCATGAGGAAG | 82.7 |
| CGTCCTAGTGATTTTCACGTGGACTCCATGAGGAAG | 679 |
| AACTACTGCCTTTATCATGTGACGGAACTACGCTTG | 1000 |
| AATCTTGAATGGAGTGACCTGAGACAAGGAGAGGCA | 77.9 |

Repeated from above (sample 1):
| target | observed | remaining binding |
| --- | --- | --- |
| ACVRL1 (Homo sapiens, UniProt P37023) | binding | 71.7% |
| RIPK4 (Homo sapiens, UniProt P57078) | cell-free assay | 100% |
| CAMK2D (Homo sapiens, UniProt Q13557) | cell-free assay | 100% |
| DYRK2 (Homo sapiens, UniProt Q92630) | cell-free assay | 100% |
| Tyrosine-protein kinase ABL1, phosphorylated (ABL1, Homo sapiens, UniProt P00519) | cell-free assay | 83.3% |
